Published values of several laboratories.
A part holds a random share of what one study measured.

Study 1
Target: Sal-like protein 4, full length isoform B (SALL4, Homo sapiens, UniProt Q9UJQ4-2, residues 1-616)
Method: universal PBM
Form: double-stranded DNA, one strand shown
Matrix: in vitro
Tested at: not given
Setting: 8-mer, flanks averaged, mean of replicates
Direction: higher = stronger binding
Residues (chain): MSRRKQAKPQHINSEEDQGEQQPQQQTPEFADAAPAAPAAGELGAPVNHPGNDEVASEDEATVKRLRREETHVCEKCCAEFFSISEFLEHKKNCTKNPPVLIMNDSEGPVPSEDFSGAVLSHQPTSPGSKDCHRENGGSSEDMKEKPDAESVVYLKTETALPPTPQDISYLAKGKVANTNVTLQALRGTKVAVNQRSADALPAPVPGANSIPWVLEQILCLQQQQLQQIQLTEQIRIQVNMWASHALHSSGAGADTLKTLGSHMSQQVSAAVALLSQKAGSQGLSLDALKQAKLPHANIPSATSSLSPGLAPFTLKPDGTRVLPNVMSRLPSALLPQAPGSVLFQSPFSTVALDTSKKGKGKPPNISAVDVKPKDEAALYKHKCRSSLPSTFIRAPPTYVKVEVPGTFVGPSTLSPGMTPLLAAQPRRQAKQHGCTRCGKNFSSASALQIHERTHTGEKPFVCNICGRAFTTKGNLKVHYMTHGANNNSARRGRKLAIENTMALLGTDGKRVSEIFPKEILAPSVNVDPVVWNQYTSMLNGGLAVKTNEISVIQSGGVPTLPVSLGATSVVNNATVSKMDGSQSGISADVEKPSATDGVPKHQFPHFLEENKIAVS
For `ACTACCGG`, the E-score was -0.29.
`AATGCTAT` has an E-score of 0.257.
With `GGTGGCTA` the E-score was -0.197.

Study 2
Target: Histone acetyltransferase KAT6A, both winged helices, GST fusion (KAT6A, Homo sapiens, UniProt Q92794, residues 1-181)
Method: protein binding microarray
Form: double-stranded DNA, one strand shown
Matrix: in vitro
Tested at: not given
Setting: 8-mer, flanks averaged, mean of 2 arrays, mostly near background
Reference: not given
Direction: higher = stronger binding
Construct (chain): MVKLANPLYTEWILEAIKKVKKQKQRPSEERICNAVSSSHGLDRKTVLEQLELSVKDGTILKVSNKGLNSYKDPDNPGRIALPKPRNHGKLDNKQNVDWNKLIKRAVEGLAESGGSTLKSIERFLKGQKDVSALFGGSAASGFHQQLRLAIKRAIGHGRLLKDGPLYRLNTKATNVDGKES
The E-score of `ATTTCTAC` is reported as -0.158.
The E-score of `CCCTCCGC` is reported as 0.106.
The E-score of `CATAGACC` is reported as -0.0104.

Study 3
Target: Interferon regulatory factor 7, full length, phosphomimetic (IRF7, Homo sapiens, UniProt Q92985, residues 1-503, S101K/S471D/S472D/S475D/S476D/S477D/S483D/S484D/S487D)
UniProt Q92985, sequence (whole entry, unmodified, looked up): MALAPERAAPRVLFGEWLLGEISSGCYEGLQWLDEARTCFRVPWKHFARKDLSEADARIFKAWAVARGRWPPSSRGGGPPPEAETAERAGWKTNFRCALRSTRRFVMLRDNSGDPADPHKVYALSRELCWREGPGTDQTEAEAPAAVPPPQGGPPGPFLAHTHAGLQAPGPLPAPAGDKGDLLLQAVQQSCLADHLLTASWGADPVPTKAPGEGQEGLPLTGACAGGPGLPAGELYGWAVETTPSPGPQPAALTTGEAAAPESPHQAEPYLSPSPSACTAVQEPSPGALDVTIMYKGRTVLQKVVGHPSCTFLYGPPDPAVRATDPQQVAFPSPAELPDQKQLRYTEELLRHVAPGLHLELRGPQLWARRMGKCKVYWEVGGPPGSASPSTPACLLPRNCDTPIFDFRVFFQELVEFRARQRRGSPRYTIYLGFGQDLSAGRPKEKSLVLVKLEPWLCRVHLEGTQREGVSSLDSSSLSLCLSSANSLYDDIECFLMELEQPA
Method: protein-binding microarray
Form: double-stranded DNA, one strand shown
Matrix: in vitro
Tested at: 250 nM
Setting: 60-bp whole probe
With: salmon DNA 0.4 mg/ml
Reference: random background probes
Direction: higher = stronger binding
For `GCCTAGCACGACTGACTGGGTCTCGGGACGTGCTAGGTCTTGATTCGCTTGACGCTGCTG`, the log fluorescence was -0.304 z-score.
The log fluorescence of `GCCTAGCACTTAGCACTGGGGACTGGGTTAGTGCTAGTCTTGATTCGCTTGACGCTGCTG` is reported as -0.654 z-score.
`GCCTAGCACTCAGCTCTAGGTTCTCTGAAGGTGCTAGTCTTGATTCGCTTGACGCTGCTG` gave a log fluorescence of -0.723 z-score.

Single results of other studies
The fold induction of `PhoQ, residues 284 288 289 292 302 303 SLSLLA` is reported as 17.9 (PhoP, residues 12 14 15 18 19 LYHSL (Escherichia coli, UniProt P23836); Sort-seq, measured: YFP reporter; E. coli; PhoQ-PhoP variant library, with: 10 µM Mg2+; reference: high Mg2+ state, higher = stronger signaling).

Repeated from above (study 3):
For `GCCTAGCACGACTGACTGGGTCTCGGGACGTGCTAGGTCTTGATTCGCTTGACGCTGCTG`, the log fluorescence was -0.304 z-score.
